Measured values of several laboratories.
A part holds a random share of what one study measured.

Study 1 — technique: RNA Bind-n-Seq; form: RNA; sample: in vitro; tested at: 365 nM; baseline: no-protein control; direction: higher = stronger binding
Target: RNA binding protein fox-1 homolog 2, RRM domain, GST-SBP tag (RBFOX2, Homo sapiens, UniProt O43251-10, residues 100-194)
Notes: natural RNA segment, single round, ends assumed
Constant ends, left off below: GGGAGUUCUACAGUCCGACGAUC … UGGAAUUCUCGGGUGCCAA
| Oligonucleotide | RBNS enrichment (R) |
| --- | --- |
| CUCCGCCUCCCGACCAGAGGGGUCCCUCAUGCCUGGCUGGCAGCCUCCUGGCAAGUGAGAAAGCCCUUUAUGCAGCAAUAUAUCAUAGCAGGUGGCUGGGGACACUGCAU | 0.453 |
| CUGCUCUGCUGCCUCUUUGCCACUUCCUGGAAGCCUUCCUCCCUGGAAGAACAGCCUUUUGCAUCUGAGGCGACCAUUUUUACACCAUGCAGAUCUUCGUGGUUAUCAUC | 0.419 |
| AGUGCCCAACCAGGGACCACUGUCAUCAUAGUGGCUCUCAAUGUGCAUGUCACACCCCCCCUCAGUAGACUUGAGUAUUUUGAUGACCAAAGAGGAUGAUUUUCCUCAGA | 1.27 |
| AACCCUGCCUGACCUCCUUUGCAGUCAUCAUCUGUCUUUUCUUGGCGUGGGUGCUCACCUCACUUAUCCUCGGGGUUUGGGACCUGGCAUCAGGACCUCUCCACCCAGGA | 0.587 |
| UAAGCUGAACCACCAACAGAGAAAAGCAGGCCUUUGCAGAUAUGAUGGAAUGCAUCCCACCUUGCCAAAGCACUUACACCAGUUUGACUGUGCUAGCUAAAAGACAAAUU | 1.36 |
| AAAAUUUUUAAUUUCUAUAGUUAAGAUUUACUGCAUAAUAUAGAAUAUAAAGUUAAGUUAACAUACUAACAUUUCUCCUUUGGAGGAAGUUUUAAUCUACUUCAGGAUGC | 0.631 |
| UGCAUGAGCCAUGAAUUGGGCUAGAGGAAGCCUUGUCAUCAGAUACUGACCAUAGCAUGUGACACUCAGACUUCUCAGCUCCUGUGCAUCCCAGUGUAGGCUCUGAGGCC | 11.1 |
| CUGUUGUGGGAAUCGCGCCCACCCCCAUCCGUGUGUUGUAGCCACUCACGGUUUGCAUCAAGAGUGUUUUUUGUAACUGCCUCUGGACUUGGGACAGUGAGUAGGAUCAA | 1.26 |

Study 2 — technique: protein binding microarray; form: double-stranded DNA, one strand shown; sample: in vitro; tested at: not given; baseline: not given; direction: higher = stronger binding
Target: Histone acetyltransferase KAT6A, winged helix 2, GST fusion (KAT6A, Homo sapiens, UniProt Q92794, residues 85-181)
Notes: 8-mer, flanks averaged, mean of 2 arrays, mostly near background
Construct (chain): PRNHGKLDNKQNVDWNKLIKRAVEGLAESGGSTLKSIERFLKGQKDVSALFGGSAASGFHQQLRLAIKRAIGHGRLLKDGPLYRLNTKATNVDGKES
| Oligonucleotide | E-score |
| --- | --- |
| CTGTTTCA | 0.097 |
| CTTCGATA | 0.079 |
| TAAGATAA | -0.082 |
| ATCGCGGA | 0.0634 |
| CCAGTCCC | -0.073 |
| CGGGCACC | 0.177 |
| CGTGGAGA | 0.0642 |
| AGCAGCCG | 0.0951 |
| GCCCTGTA | -0.145 |
| CAGGGTCC | 0.00736 |
| CCGCTGAA | 0.119 |
| ATGCTATA | 0.00739 |
| ACTTCCAT | 0.00324 |
| CGATGGCC | 0.00928 |
| AGCACGGA | -0.112 |
| CCACTGGC | 0.203 |
| CATATGAG | -0.0435 |
| AGTCCAGA | 0.0163 |
| GCCGCAGC | 0.185 |
| CGCTATCC | 0.0108 |
| CGAACTAG | -0.0819 |

Study 3 — technique: universal PBM; form: double-stranded DNA, one strand shown; sample: in vitro; tested at: not given; direction: higher = stronger binding
Target: Sal-like protein 4, full length isoform B (SALL4, Homo sapiens, UniProt Q9UJQ4-2, residues 1-616)
Notes: 8-mer, flanks averaged, mean of replicates
Residues (chain): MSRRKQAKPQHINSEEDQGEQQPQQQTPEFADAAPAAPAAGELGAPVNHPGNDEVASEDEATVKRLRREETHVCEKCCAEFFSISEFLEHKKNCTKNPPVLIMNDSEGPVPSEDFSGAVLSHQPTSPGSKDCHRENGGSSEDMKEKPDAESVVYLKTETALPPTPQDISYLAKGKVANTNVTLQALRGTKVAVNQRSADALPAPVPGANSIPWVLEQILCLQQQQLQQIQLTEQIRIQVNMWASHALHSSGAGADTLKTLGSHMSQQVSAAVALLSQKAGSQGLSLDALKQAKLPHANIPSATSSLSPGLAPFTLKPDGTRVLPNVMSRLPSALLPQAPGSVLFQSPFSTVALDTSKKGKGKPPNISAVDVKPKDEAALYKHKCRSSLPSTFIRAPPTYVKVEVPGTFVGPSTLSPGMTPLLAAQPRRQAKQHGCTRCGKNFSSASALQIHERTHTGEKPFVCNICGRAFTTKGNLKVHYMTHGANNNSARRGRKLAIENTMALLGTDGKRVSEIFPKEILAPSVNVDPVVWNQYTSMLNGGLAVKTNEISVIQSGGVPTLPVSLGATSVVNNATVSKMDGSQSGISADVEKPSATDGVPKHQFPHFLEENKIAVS
| Oligonucleotide | E-score |
| --- | --- |
| CGGTGCCC | -0.407 |
| GTCCGTCA | 0.0257 |
| GGAAGTTA | 0.149 |
| CCTTCCCA | -0.115 |
| CGGACAAG | -0.151 |
| ACTTGTCA | -0.0746 |
| AGCATTTG | 0.0728 |
| ACACCCGC | -0.191 |
| TCTGAAAA | 0.124 |
| AAGTGGCT | -0.0954 |
| ATTACTAA | 0.337 |
| ATTACTAG | 0.28 |
| AATGCGGC | -0.144 |
| CCGGAAAG | -0.223 |
| CCCATAAC | 0.138 |
| ATGAAAGA | 0.195 |
| CCTATCAA | 0.153 |
| CAGACAGG | -0.189 |
| CGTATACG | 0.148 |
| CTGCGCGC | -0.233 |
| AAGACTAC | 0.169 |
| AATACTAT | 0.295 |
| AACTCGTA | 0.142 |
| AACCCCTC | -0.263 |

Study 4 — technique: aptamer microarray, sandwich; form: DNA with 2'F-ANA; sample: in vitro; tested at: 200 nM; with: Cy3 exosite-II aptamer, 400 nM; direction: higher = stronger binding; oligonucleotide: GGTTGGTGTGGTTGG
Target: Prothrombin, mature alpha-thrombin (F2, Homo sapiens, UniProt P00734)
Notes: whole 15-mer aptamer, many near background
| Modification | mean fluorescence intensity |
| --- | --- |
| 2'F-ANA at 5 10 11 15 | 47.1 a.u. |
| 2'F-ANA at 1 2 9 12 15 | 369 a.u. |
| 2'F-ANA at 1 2 4 6 11 12 15 | 190 a.u. |
| 2'F-ANA at 1 2 3 4 9 11 13 | 117 a.u. |
| 2'F-ANA at 2 3 4 7 8 11 12 14 | 428 a.u. |
| 2'F-ANA at 1 2 3 4 8 10 | 58.4 a.u. |
| 2'F-ANA at 1 2 3 5 6 8 9 10 11 13 | 88.6 a.u. |
| 2'F-ANA at 4 5 8 10 11 13 | 72.5 a.u. |
| 2'F-ANA at 3 5 9 15 | 129 a.u. |
| 2'F-ANA at 2 3 4 5 8 12 13 15 | 141 a.u. |
| 2'F-ANA at 1 2 3 5 7 8 10 12 13 14 15 | 47.4 a.u. |
| 2'F-ANA at 1 2 3 4 6 10 13 15 | 60 a.u. |
| 2'F-ANA at 1 4 7 8 9 10 11 14 | 49 a.u. |
| 2'F-ANA at 2 5 6 10 12 14 | 49.5 a.u. |
| 2'F-ANA at 3 4 7 8 10 13 14 | 219 a.u. |
| 2'F-ANA at 6 8 10 11 13 14 | 95.2 a.u. |
| 2'F-ANA at 1 5 9 10 12 14 15 | 50.9 a.u. |
| 2'F-ANA at 3 4 5 6 7 8 9 10 11 12 13 | 53.8 a.u. |
| 2'F-ANA at 1 3 4 5 6 9 10 11 | 46.6 a.u. |
| 2'F-ANA at 1 3 4 5 9 15 | 59.5 a.u. |
| 2'F-ANA at 1 2 3 4 5 7 9 10 13 15 | 47.1 a.u. |

A few entries again (study 1):
| Oligonucleotide | RBNS enrichment (R) |
| --- | --- |
| AGUGCCCAACCAGGGACCACUGUCAUCAUAGUGGCUCUCAAUGUGCAUGUCACACCCCCCCUCAGUAGACUUGAGUAUUUUGAUGACCAAAGAGGAUGAUUUUCCUCAGA | 1.27 |
| AACCCUGCCUGACCUCCUUUGCAGUCAUCAUCUGUCUUUUCUUGGCGUGGGUGCUCACCUCACUUAUCCUCGGGGUUUGGGACCUGGCAUCAGGACCUCUCCACCCAGGA | 0.587 |
| UGCAUGAGCCAUGAAUUGGGCUAGAGGAAGCCUUGUCAUCAGAUACUGACCAUAGCAUGUGACACUCAGACUUCUCAGCUCCUGUGCAUCCCAGUGUAGGCUCUGAGGCC | 11.1 |
| CUCCGCCUCCCGACCAGAGGGGUCCCUCAUGCCUGGCUGGCAGCCUCCUGGCAAGUGAGAAAGCCCUUUAUGCAGCAAUAUAUCAUAGCAGGUGGCUGGGGACACUGCAU | 0.453 |
